Assay results collected from several papers.
Numbers after ± are the reported error.
SLC6A4: Sodium-dependent serotonin transporter (SLC6A4, Homo sapiens, UniProt P31645)
UniProt P31645, sequence (whole entry, looked up): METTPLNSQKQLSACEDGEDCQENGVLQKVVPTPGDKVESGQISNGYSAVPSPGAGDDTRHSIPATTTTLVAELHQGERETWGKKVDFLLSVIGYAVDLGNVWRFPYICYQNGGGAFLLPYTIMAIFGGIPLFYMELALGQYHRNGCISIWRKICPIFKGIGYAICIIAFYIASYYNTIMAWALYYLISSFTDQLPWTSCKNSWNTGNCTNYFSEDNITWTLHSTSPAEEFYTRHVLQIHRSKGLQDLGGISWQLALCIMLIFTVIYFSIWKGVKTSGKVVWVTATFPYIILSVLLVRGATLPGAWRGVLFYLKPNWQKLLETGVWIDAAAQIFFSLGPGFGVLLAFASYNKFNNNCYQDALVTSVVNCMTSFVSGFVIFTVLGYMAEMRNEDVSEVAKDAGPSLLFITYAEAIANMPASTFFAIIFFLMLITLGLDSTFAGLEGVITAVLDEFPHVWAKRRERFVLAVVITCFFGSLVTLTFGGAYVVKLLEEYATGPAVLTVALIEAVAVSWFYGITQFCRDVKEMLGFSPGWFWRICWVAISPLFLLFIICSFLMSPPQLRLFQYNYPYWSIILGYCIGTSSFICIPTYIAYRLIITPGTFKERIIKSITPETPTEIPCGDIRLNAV
GABA-A receptor; alpha-5/beta-3/gamma-2: GABA-A receptor; alpha-5/beta-3/gamma-2 (Homo sapiens, UniProt P18507+P28472+P31644)
UniProt P18507, sequence (whole entry, looked up): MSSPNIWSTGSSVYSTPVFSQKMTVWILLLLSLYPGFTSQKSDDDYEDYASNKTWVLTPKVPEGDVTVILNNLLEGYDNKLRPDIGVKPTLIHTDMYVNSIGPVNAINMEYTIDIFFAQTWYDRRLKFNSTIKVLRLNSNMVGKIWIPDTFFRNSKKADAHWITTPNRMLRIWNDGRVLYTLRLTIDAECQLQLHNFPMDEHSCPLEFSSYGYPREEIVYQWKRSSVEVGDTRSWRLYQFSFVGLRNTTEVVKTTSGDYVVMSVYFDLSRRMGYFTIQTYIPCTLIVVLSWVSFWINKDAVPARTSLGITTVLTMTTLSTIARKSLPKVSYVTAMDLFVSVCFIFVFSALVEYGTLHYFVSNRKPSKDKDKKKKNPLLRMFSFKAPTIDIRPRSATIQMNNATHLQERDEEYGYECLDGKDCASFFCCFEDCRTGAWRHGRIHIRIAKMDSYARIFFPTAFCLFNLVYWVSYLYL
UniProt P31644, sequence (whole entry, looked up): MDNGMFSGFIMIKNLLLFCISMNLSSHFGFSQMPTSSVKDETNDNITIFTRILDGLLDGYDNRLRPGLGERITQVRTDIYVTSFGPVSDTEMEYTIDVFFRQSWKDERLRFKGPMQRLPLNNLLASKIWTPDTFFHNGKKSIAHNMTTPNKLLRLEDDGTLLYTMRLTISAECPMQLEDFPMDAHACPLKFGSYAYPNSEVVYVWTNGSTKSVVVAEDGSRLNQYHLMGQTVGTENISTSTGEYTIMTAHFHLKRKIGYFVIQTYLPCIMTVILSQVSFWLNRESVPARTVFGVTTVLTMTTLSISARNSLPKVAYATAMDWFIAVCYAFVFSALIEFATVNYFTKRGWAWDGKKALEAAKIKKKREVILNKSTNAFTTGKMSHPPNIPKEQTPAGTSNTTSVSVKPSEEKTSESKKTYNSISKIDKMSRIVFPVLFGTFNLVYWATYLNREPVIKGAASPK
UniProt P28472, sequence (whole entry, looked up): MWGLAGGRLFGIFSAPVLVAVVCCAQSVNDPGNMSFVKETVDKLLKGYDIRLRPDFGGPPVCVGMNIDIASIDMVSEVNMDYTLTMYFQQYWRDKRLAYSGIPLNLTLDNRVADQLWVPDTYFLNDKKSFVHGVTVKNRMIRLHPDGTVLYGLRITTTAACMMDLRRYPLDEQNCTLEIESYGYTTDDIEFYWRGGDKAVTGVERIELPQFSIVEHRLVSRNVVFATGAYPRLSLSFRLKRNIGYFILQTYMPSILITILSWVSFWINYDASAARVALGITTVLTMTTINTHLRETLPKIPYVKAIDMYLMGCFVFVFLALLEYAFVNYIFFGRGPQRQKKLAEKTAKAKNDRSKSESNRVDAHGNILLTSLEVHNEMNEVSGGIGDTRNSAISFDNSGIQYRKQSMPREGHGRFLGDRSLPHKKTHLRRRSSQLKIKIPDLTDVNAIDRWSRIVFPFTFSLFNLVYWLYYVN
Aryl hydrocarbon receptor: Aryl hydrocarbon receptor (Danio rerio, UniProt Q9YGV3)
AHR: Aryl hydrocarbon receptor (AHR, Homo sapiens, UniProt P35869)
UniProt P35869, sequence (whole entry, looked up): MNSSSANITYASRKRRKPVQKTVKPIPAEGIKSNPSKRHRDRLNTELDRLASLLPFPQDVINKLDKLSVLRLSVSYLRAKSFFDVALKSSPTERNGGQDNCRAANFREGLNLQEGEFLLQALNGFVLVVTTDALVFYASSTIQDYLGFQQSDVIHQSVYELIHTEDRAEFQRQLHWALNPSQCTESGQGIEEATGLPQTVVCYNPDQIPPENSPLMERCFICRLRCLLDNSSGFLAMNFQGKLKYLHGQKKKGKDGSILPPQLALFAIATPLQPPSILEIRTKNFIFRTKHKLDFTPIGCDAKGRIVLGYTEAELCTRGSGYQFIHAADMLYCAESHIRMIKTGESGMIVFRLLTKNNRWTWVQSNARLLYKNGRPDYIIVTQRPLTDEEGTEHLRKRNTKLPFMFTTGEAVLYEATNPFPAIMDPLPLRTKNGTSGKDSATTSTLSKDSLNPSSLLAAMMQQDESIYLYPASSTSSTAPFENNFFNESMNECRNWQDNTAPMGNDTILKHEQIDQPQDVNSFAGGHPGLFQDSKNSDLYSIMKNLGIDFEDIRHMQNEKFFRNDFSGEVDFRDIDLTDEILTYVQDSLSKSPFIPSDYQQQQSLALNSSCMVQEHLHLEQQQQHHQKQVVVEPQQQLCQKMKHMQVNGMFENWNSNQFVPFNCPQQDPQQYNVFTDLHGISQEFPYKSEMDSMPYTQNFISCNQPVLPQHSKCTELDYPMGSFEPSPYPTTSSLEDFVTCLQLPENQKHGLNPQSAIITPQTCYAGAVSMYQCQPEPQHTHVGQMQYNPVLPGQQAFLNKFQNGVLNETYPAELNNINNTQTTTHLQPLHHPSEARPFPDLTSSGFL
npr-9: Galanin-like G-protein coupled receptor npr-9 (npr-9, Caenorhabditis elegans, UniProt Q23497)
UniProt Q23497, sequence (whole entry, looked up): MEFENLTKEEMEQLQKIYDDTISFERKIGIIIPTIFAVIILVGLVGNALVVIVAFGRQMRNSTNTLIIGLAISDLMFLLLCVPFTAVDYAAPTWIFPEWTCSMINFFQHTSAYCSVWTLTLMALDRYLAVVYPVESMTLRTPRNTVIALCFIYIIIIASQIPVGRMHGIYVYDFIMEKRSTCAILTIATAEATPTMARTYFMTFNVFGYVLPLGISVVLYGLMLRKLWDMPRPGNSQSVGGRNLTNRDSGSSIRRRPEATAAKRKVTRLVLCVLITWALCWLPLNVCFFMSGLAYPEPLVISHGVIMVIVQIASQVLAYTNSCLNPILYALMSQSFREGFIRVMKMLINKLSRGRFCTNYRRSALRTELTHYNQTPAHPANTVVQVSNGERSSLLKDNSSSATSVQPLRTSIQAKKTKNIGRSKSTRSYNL
Neuronal acetylcholine receptor; alpha9/alpha10: Neuronal acetylcholine receptor; alpha9/alpha10 (Homo sapiens, UniProt Q9GZZ6+Q9UGM1)
UniProt Q9UGM1, sequence (whole entry, looked up): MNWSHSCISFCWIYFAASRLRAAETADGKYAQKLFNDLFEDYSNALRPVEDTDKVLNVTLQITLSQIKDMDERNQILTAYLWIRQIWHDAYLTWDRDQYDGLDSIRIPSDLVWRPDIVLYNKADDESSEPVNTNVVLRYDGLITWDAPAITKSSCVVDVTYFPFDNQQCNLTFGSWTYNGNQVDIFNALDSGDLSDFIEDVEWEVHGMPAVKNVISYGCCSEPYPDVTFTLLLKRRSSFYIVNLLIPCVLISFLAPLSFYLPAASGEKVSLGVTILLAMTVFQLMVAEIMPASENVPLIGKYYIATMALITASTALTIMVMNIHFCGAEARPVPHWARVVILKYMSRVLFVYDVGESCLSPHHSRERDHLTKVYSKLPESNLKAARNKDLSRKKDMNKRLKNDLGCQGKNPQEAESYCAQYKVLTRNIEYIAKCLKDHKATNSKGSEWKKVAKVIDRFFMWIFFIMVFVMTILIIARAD
UniProt Q9GZZ6, sequence (whole entry, looked up): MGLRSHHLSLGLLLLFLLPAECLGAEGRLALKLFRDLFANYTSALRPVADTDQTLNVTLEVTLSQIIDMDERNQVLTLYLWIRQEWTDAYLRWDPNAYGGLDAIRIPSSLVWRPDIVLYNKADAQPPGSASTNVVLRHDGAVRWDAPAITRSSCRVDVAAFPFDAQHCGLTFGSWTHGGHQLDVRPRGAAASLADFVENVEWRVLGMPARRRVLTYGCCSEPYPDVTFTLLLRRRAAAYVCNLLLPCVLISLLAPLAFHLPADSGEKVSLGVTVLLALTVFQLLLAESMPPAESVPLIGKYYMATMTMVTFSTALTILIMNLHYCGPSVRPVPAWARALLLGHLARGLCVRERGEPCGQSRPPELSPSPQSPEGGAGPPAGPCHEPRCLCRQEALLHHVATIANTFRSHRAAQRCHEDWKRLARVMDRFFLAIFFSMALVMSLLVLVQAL
HTR2A: 5-hydroxytryptamine receptor 2A (HTR2A, Homo sapiens, UniProt P28223)
UniProt P28223, sequence (whole entry, looked up): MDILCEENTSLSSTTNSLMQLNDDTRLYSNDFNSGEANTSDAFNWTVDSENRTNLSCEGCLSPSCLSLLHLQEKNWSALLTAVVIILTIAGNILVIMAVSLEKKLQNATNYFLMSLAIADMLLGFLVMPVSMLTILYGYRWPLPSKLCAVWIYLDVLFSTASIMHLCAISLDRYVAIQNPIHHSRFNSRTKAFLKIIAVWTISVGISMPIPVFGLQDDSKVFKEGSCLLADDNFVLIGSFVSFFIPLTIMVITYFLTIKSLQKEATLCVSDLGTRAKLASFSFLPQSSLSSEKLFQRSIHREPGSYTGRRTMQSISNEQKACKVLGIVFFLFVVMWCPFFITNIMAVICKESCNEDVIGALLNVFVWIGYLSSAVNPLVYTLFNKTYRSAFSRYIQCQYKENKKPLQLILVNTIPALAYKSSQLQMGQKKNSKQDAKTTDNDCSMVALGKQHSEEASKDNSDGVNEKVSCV

SMILES | target | assay | test system | conditions | how to read | EC50 [nM]
CNC(C)Cc1ccc2nsnc2c1 (stereo not drawn) | SLC6A4 | transporter current, whole-cell patch clamp | HEK293 | holding -60 mV | – | 440
CCCCC/C=C\C/C=C\C/C=C\C/C=C\CCCC(=O)NCCO | Trpv1 (Mus musculus, UniProt Q704Y3, E571S) | ion current, agonist, whole-cell patch clamp | – | 24 °C, E571S, +80 mV | – | 7490 ± 1180
Oc1noc2c1CCNC2 | GABA-A receptor; alpha-5/beta-3/gamma-2 | membrane potential, agonist, QP-DHM fluorescence | HEK293 expressing GABAA α5β3γ2 | – | – | 13000
O=C(Nc1ccccc1F)c1ccc(-c2cccc(B(O)O)c2)s1 | ESRRG (Homo sapiens, UniProt P62508) | – | – | – | – | ~450
O=C1c2ccccc2C(=O)c2c1ccc1ccccc21 | Aryl hydrocarbon receptor | agonist | ZF4 reporter cells | 22 to 24 h | – | 1200
Cc1ccc2ccc3ccccc3c2c1 | AHR | reporter gene, agonist, yeast LacZ reporter | Saccharomyces cerevisiae | 18 h, 30 °C | baseline: 50% of 100 µM phenanthrene activity | 5790
O=C(N=Nc1c(O)n(CCCCCF)c2ccccc12)c1ccccc1 | CNR1 (Homo sapiens, UniProt P21554) | agonist | – | – | – | 186
Cc1cccc2ccc3ccccc3c12 | AHR | reporter gene, agonist, yeast LacZ reporter | Saccharomyces cerevisiae | 18 h, 30 °C | baseline: 50% of 100 µM phenanthrene activity | 11700
CCCCCCCCCCCCCC(=O)O[C@@H]1[C@@H](C)[C@@]2(O)[C@@H](C=C(CO)C[C@]3(O)C(=O)C(C)=C[C@@H]23)[C@@H]2C(C)(C)[C@]12OC(C)=O | Prkcd (Mus musculus, UniProt P28867) | – | mouse cells | – | – | 38 ± 16
Cc1cccc2c1ccc1ccccc12 | AHR | reporter gene, agonist, yeast LacZ reporter | Saccharomyces cerevisiae | 18 h | – | 11100
CSCC[C@H](NC(=O)[C@H](CCCNC(=N)N)NC(=O)[C@H](Cc1ccccc1)NC(=O)[C@H](C)NC(=O)[C@H](CC(N)=O)NC(=O)[C@@H]1CCCN1C(=O)[C@H](CC(=O)O)NC(=O)[C@H](CC(C)C)NC(=O)[C@H](CC(N)=O)NC(=O)[C@@H](N)C(C)C)C(=O)N[C@@H](CO)C(=O)N[C@@H](Cc1ccccc1)C(N)=O | npr-9 | calcium mobilization, agonist, aequorin luminescence | CHO cells | – | – | 480
NCc1cc(=O)[nH]o1 | GABA-A receptor; alpha-5/beta-3/gamma-2 | membrane potential, agonist, QP-DHM fluorescence | HEK293 expressing GABAA α5β3γ2 | – | – | 650
C[C@@H](NC(=O)c1ccc(C#Cc2cccc(F)c2)cn1)C(C)(C)O | Grm5 (Rattus norvegicus, UniProt P31424) | calcium mobilization, positive allosteric modulator | – | with: glutamate EC20 | – | 1.5 ± 0.8
CNC(C)Cc1ccc2nonc2c1 (stereo not drawn) | SLC6A4 | transporter current, whole-cell patch clamp | HEK293 | holding -60 mV | – | 1270
CSCC[C@H](NC(=O)[C@H](CCCNC(=N)N)NC(=O)[C@H](Cc1ccccc1)NC(=O)[C@H](C)NC(=O)[C@H](CC(N)=O)NC(=O)[C@H](C)NC(=O)[C@H](CC(=O)O)NC(=O)[C@@H](N)CCSC)C(=O)N[C@@H](CO)C(=O)N[C@@H](Cc1ccccc1)C(N)=O | npr-9 | calcium mobilization, agonist, aequorin luminescence | CHO cells | – | – | 244
C[N+]1(C)CCN(c2ccccc2)CC1 | Neuronal acetylcholine receptor; alpha9/alpha10 | – | – | – | – | 4390 ± 270
c1ccc2cc3c(cc2c1)-c1cccc2cccc-3c12 | Aryl hydrocarbon receptor | agonist | ZF4 reporter cells | 22 to 24 h | – | 2.4
CC(C)(C)NC[C@H](O)COc1nsnc1N1CCOCC1 | Gag polyprotein, nucleocapsid protein p7 (gag, Human immunodeficiency virus type 1 group M subtype B, UniProt P04591) | NCp7-RNA binding enhancement, AlphaScreen | – | with: U3 RNA | baseline: DMSO | 25000
CCCC(NCCc1cc(OC)c(C#N)cc1OC)c1ccccc1O (stereo not drawn) | HTR2A | agonist | – | cell-based | – | 140
CCC[N+]1(CC)CCN(c2ccc(C#N)cc2)CC1 | Neuronal acetylcholine receptor; alpha9/alpha10 | peak current, agonist, two-electrode voltage clamp | Xenopus laevis oocytes, α9α10 with RAPSYN | – | – | 3700 ± 1600
COc1cc(CCNC(CO)c2ccccc2)c(OC)cc1C#N (stereo not drawn) | HTR2A | agonist | – | – | – | 320
Cc1ccc2c(ccc3ccccc32)c1 | AHR | reporter gene, agonist, yeast LacZ reporter | Saccharomyces cerevisiae | 18 h, 30 °C | baseline: 50% of 100 µM phenanthrene activity | 4620
O=C(O)c1ccccc1Nc1cccc(C(F)(F)F)c1 | BK channel alpha subunit (Cavia porcellus, UniProt A0A286XP95) | delayed rectifier K+ current, activator | dispersed vascular smooth muscle cells, guinea pig, SMA arteriole | at +40 mV | – | 346000
Oc1cccc(N2C3CCC2CN(CCc2ccccc2)C3)c1 | OPRD1 (Homo sapiens, UniProt P41143) | – | – | – | – | 23.5 ± 5.89
CC1(C(=O)Nc2ccc(O)c(Cl)c2Cl)CCCCC1 | AHR | agonist | – | – | – | > 100000
COc1cc(CCNC(c2ccccc2O)C2CC2)c(OC)cc1C#N (stereo not drawn) | HTR2A | agonist | – | cell-based | – | 34.7
CC#Cc1cc(C)nc(Nc2ccccc2)n1 | AHR | agonist | – | – | – | 770
Clc1cc2c(cc1Cl)Oc1cc(Cl)c(Cl)cc1O2 | Uncharacterized protein (Takifugu rubripes, UniProt Q4JHL2) | reporter gene, agonist, dual-luciferase | COS-7 | 24 h | – | 0.43 ± 0.22
C[C@H](N)Cn1ncc2ccc3c(c21)CCCO3 | HTR2A | agonist, aequorin | – | – | – | 1.68 ± 0.38
CC[C@H](C)[C@H](NC(=O)[C@H](CO)NC(=O)[C@H](C)NC(=O)[C@H](Cc1ccc(OP(=O)(O)O)cc1)NC(=O)[C@H](CCC(=O)O)NC(=O)[C@@H](NC(=O)[C@H](Cc1c[nH]cn1)NC(=O)[C@H](CC(N)=O)NC(=O)[C@H](CC(N)=O)NC(=O)[C@@H]1CCCN1C(=O)[C@H](CCC(=O)O)NC(=O)[C@H](C)NC(=O)[C@H](C)NC(=O)[C@H](CCC(N)=O)NC(=O)[C@@H]1CCCN1C(=O)[C@H](C)NC(=O)[C@@H]1CCCN1C(=O)[C@H](CCCCN)NC(=O)[C@H](CCCCN)NC(=O)CNC(=O)[C@H](CCCCN)NC(=O)[C@@H]1CCCN1C(=O)[C@H](CC(C)C)NC(=O)[C@H](CC(N)=O)NC(=O)[C@H](CC(C)C)NC(=O)[C@H](CC(=O)O)NC(=O)[C@H](C)NC(=O)[C@H](Cc1ccc(OP(=O)(O)O)cc1)NC(=O)[C@@H](NC(=O)[C@@H](NC(=O)[C@@H](N)CC(=O)O)[C@@H](C)CC)[C@@H](C)O)[C@@H](C)O)C(=O)N[C@@H](CCC(N)=O)C(=O)N[C@H](C(=O)N[C@@H](CO)C(=O)O)[C@@H](C)O | PTPN11 (Homo sapiens, UniProt Q06124, R111E) | enzyme activity, activator | – | pH 7.0, 0.2% DMSO, with: DiFMUP 100 µM, phosphopeptide | – | 830 ± 30

For quick reference, copied from above:
SMILES | target | assay | test system | conditions | how to read | EC50 [nM]
CC#Cc1cc(C)nc(Nc2ccccc2)n1 | AHR | agonist | – | – | – | 770
CCCC(NCCc1cc(OC)c(C#N)cc1OC)c1ccccc1O (stereo not drawn) | HTR2A | agonist | – | cell-based | – | 140
c1ccc2cc3c(cc2c1)-c1cccc2cccc-3c12 | Aryl hydrocarbon receptor | agonist | ZF4 reporter cells | 22 to 24 h | – | 2.4
